Results from different studies.
Parts stem from different laboratories: compare values within a part only. Positions count from the first letter of the parent shown.
UniProt Q99640, sequence (whole entry, looked up): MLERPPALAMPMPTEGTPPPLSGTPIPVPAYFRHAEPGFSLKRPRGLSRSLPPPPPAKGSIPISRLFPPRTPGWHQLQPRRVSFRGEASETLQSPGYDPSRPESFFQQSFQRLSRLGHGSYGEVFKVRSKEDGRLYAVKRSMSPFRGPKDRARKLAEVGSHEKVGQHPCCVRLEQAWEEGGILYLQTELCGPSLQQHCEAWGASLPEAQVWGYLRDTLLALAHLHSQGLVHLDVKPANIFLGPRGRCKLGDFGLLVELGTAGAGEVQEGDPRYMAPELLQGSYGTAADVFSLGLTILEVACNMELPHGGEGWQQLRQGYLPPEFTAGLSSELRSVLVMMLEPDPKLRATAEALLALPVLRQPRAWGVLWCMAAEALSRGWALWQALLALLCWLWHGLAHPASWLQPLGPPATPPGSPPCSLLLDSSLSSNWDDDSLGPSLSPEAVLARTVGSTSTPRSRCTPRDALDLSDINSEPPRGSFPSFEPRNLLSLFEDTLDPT

Study 1 — technique: protein binding microarray; form: double-stranded DNA, one strand shown; medium: in vitro; concentration: not given; relative to: not given; direction: higher = stronger binding
Target: Histone acetyltransferase KAT6A, winged helix 1, GST fusion (KAT6A, Homo sapiens, UniProt Q92794, residues 1-85)
Setting: 8-mer, flanks averaged, mean of 2 arrays, mostly near background
Construct (chain): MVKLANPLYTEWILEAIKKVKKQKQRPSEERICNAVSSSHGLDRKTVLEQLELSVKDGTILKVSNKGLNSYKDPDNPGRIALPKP
| Sequence | E-score |
| --- | --- |
| ATACGCTG | 0.134 |
| CTTAGCGC | 0.276 |
| GCCAGCCC | -0.0828 |
| CGAGCAAA | -0.179 |
| GCGGGAAA | 0.267 |
| ACCGATCG | 0.18 |
| GAGGTTGA | -0.139 |
| ATAGTGTA | -0.114 |

Study 2 — target: BATF3, bZIP domain (human); technique: DHFR protein complementation; medium: yeast; relative to: wild-type JUN-FOS pair; direction: higher = stronger binding
Setting: single substitutions, most at no-binding floor
Starting sequence: JUN, bZIP domain (human); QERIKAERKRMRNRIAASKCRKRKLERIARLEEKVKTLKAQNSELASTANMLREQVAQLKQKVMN; partner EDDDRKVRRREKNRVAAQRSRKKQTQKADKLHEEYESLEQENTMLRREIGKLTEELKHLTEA
| Change | binding fitness [natural log] |
| --- | --- |
| E44R | 0.161 |
| E44A | 0.148 |
| R30G | 0.331 |
| Q41F | -1.01 |
| L38G | -0.0276 |
| M51T | 0.277 |
| L59R | 0.189 |
| E33H | 0.118 |

Study 3 — target: CCNF, cyclin fold, Cln2 fusion (human); technique: yeast growth competition, sequencing; medium: yeast; setting: strong parent motif; relative to: not given; direction: higher = stronger binding
Starting sequence: viral docking peptide; KGVKRKLFAEDSS; partner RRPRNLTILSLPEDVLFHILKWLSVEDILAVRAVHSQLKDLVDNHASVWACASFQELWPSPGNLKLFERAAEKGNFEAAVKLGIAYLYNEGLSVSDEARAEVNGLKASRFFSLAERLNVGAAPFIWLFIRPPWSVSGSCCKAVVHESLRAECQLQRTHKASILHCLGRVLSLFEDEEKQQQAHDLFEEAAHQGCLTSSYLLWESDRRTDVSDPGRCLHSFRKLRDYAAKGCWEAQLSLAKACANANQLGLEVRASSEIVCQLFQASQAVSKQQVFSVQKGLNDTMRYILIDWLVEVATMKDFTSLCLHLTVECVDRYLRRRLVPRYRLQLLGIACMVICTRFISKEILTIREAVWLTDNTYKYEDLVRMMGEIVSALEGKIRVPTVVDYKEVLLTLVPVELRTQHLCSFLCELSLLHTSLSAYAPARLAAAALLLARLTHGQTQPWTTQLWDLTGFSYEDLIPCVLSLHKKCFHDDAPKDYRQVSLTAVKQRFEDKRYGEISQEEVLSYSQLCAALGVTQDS
| Change | normalised enrichment score |
| --- | --- |
| KGVKRKLFAEGSS [D11G] | 8.37 |
| KGVKRKLFAYDSS [E10Y] | 7.29 |
| KGVKRKLFAADSS [E10A] | 7.77 |
| KNVKRKLFAEDSS [G2N] | 8.08 |
| KGQKRKLFAEDSS [V3Q] | 1.51 |
| KGVKRKLTAEDSS [F8T] | 0.468 |
| KGVKRKKFAEDSS [L7K] | 0.817 |
| KGVKRKLFAEWSS [D11W] | 8.39 |
| KGVKRKVFAEDSS [L7V] | 0.891 |
| KGVKRKLFAMDSS [E10M] | 7.54 |
| KSVKRKLFAEDSS [G2S] | 8.19 |
| KGVKRKLFAESSS [D11S] | 8.32 |
| KGVKRKLAAEDSS [F8A] | 1.51 |
| KGVKRKLNAEDSS [F8N] | 0.481 |
| KCVKRKLFAEDSS [G2C] | 8.26 |
| KGVKRKLDAEDSS [F8D] | 0.485 |
| KGVKRKLFAEDWS [S12W] | 8.27 |
| KGVKRYLFAEDSS [K6Y] | 3.23 |
| KGVKQKLFAEDSS [R5Q] | 1.05 |
| KGVKRQLFAEDSS [K6Q] | 8.25 |
| KGVKRKGFAEDSS [L7G] | 0.221 |
| KGVKRKLFAEHSS [D11H] | 7.89 |
| KGLKRKLFAEDSS [V3L] | 5.58 |
| KAVKRKLFAEDSS [G2A] | 7.54 |
| KGVKRKLFAEDRS [S12R] | 8.03 |

Study 4 — technique: protein-binding microarray; form: double-stranded DNA, one strand shown; medium: in vitro; concentration: not given; direction: higher = stronger binding
Target: TATA-box-binding protein 1 (TBP1, Arabidopsis thaliana, UniProt P28147, residues 1-200, full length assumed)
Setting: k-mer, scored over probes, only values ≥0.25
Construct (chain): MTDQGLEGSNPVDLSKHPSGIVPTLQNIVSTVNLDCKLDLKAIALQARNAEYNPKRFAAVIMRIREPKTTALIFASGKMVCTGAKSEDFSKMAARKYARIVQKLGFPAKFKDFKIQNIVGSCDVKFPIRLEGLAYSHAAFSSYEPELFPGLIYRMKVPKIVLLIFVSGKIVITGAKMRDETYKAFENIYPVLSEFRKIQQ
| Sequence | E-score |
| --- | --- |
| CTAAATA | 0.322 |
| ATTATAC | 0.394 |
| AATATCC | 0.292 |
| AATTTAA | 0.445 |
| TATCATA | 0.336 |
| GTATTTA | 0.449 |
| CGATAAA | 0.302 |
| TGTAAAA | 0.264 |

Further values, each from its own experiment
| Molecule | target | test | test system | conditions | scale | measurement | value |
| --- | --- | --- | --- | --- | --- | --- | --- |
| PhoQ, residues 284 288 289 292 302 303 ALASRC | PhoP, residues 12 14 15 18 19 NMSFL (Escherichia coli, UniProt P23836) | Sort-seq, item: YFP reporter | E. coli | PhoQ-PhoP variant library, with: 10 µM Mg2+ | relative to: high Mg2+ state, higher = stronger signaling | fold induction | 10.1 |
| C[C@@H]1C[C@@H]([C@H](O)CC2CC(=O)NC(=O)C2)C(=O)[C@@H](C)C1 | Membrane-associated tyrosine- and threonine-specific cdc2-inhibitory kinase (PKMYT1, Homo sapiens, UniProt Q99640) | immunoblotting | HCC1569 | 50 µg/mL, 24 h |  | remaining protein level | 37.1% |
